Published values from different studies.
Each line is one published result; not all experiments were run side by side. ± marks the error that the study gave.
HLA class I histocompatibility antigen, A alpha chain allele A*02:01: HLA class I histocompatibility antigen, A alpha chain, allele A*02:01 (Homo sapiens, UniProt P04439)
ampC: Beta-lactamase (ampC, Escherichia coli K-12, UniProt P00811)
Chain of UniProt P00811 (whole entry, looked up): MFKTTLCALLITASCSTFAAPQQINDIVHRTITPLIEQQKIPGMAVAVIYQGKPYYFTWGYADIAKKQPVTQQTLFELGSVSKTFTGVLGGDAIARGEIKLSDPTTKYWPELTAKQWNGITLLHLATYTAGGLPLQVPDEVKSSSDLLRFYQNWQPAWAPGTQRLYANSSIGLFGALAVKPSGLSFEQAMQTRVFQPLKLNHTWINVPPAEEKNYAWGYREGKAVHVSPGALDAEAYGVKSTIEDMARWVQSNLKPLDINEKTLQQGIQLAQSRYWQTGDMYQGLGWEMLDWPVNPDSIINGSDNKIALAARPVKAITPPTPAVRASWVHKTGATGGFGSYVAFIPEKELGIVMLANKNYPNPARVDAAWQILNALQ
HLA class I histocompatibility antigen, A alpha chain allele A*24:02: HLA class I histocompatibility antigen, A alpha chain, allele A*24:02 (Homo sapiens, UniProt P04439)
Chain of UniProt P03023 (whole entry, unmodified, looked up): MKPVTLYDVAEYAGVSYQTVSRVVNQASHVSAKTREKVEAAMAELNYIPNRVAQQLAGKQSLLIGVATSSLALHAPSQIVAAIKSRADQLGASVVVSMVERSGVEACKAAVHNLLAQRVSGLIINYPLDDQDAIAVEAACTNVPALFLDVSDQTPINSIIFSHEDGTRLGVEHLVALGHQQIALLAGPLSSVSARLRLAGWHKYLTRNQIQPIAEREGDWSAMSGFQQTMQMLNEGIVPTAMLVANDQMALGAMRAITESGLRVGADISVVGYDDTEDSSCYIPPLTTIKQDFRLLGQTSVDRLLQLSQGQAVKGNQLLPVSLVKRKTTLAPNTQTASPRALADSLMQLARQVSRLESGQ
Chain of UniProt Q13422 (whole entry, looked up): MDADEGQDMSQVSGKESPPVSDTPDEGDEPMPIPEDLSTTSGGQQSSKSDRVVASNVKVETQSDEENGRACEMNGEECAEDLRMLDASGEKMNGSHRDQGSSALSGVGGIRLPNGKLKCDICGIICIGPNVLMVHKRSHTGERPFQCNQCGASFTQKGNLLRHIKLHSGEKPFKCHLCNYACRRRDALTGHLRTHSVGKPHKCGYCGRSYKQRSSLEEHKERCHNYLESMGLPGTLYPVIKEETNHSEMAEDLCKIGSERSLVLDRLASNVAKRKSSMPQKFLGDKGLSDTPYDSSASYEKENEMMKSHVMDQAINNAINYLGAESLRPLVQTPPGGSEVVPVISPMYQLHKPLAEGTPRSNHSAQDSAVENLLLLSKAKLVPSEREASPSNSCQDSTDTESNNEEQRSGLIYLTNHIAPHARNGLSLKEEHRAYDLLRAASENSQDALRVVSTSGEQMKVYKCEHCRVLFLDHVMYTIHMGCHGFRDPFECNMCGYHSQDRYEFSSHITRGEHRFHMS
Chain of UniProt Q96SW2 (whole entry, looked up): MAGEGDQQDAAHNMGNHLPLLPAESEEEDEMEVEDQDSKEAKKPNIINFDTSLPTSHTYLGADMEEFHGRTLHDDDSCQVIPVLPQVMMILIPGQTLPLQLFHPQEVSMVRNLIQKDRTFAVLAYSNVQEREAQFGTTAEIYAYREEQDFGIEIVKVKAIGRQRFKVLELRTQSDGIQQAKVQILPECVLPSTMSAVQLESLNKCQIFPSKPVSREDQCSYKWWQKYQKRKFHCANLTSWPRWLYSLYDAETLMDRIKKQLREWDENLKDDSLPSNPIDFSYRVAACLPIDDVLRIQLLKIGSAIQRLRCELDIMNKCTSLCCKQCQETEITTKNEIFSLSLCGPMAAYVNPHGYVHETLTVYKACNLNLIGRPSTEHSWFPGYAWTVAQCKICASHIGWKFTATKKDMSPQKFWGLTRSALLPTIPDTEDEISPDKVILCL
Chain of UniProt P41145 (whole entry, unmodified, looked up): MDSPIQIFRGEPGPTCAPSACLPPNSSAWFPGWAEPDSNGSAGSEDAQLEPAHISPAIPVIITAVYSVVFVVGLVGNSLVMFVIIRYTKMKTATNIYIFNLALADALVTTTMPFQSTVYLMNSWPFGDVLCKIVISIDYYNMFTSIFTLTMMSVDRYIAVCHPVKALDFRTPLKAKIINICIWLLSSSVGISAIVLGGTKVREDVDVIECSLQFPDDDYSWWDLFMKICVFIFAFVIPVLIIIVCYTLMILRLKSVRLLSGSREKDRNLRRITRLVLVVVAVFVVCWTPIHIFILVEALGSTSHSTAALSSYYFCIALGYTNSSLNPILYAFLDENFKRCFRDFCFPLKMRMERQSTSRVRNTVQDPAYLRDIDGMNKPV
Chain of UniProt P51451 (whole entry, looked up): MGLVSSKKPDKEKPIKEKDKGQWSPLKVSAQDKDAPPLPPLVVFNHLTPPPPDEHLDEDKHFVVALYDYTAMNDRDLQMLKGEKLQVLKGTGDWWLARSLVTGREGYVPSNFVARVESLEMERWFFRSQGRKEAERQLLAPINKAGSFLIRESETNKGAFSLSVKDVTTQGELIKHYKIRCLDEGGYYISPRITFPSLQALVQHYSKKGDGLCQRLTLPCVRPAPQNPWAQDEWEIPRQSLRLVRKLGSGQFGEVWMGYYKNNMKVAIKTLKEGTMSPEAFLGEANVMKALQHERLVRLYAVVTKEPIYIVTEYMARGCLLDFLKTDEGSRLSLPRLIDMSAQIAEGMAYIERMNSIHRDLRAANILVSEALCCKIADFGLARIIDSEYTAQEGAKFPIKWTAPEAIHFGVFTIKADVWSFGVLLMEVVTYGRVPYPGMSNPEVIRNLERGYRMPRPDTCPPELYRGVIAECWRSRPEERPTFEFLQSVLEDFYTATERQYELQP
Chain of UniProt P07947 (whole entry, looked up): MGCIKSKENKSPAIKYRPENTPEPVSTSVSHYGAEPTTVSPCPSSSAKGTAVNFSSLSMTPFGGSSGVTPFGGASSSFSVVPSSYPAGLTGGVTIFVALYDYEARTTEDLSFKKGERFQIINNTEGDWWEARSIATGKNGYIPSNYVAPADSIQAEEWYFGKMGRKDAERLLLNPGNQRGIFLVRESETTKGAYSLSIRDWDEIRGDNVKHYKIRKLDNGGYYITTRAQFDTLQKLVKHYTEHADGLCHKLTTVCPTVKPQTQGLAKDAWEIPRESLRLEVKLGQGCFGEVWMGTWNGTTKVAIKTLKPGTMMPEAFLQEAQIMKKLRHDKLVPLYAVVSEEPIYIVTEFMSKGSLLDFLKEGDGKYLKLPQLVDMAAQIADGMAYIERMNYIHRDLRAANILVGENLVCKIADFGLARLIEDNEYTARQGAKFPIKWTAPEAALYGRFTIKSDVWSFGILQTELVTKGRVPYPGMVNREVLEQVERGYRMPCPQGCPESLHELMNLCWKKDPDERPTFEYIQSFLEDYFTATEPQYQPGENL

SMILES | target | test | test system | conditions | endpoint | value
CSCC[C@H](NC(=O)[C@@H](N)CCCNC(=N)N)C(=O)N[C@@H](Cc1ccccc1)C(=O)NCC(=O)N1CCC[C@H]1C(=O)N1CCC[C@H]1C(=O)N[C@@H](CC(C)C)C(=O)N[C@H](C(=O)N[C@@H](Cc1ccccc1)C(=O)O)[C@@H](C)O | HLA class I histocompatibility antigen, A alpha chain allele A*02:01 | binding | – | – | IC50 | 0.874 µM
CC(C)S[C@@H]1O[C@H](CO)[C@H](O)[C@H](O)[C@H]1O | lacI (Escherichia coli, UniProt P03023, D149A) | binding, fluorescence titration | – | no operator DNA | Kd | 4.2 ± 0.3 µM
O=S(=O)(NCc1ccnc(OC2CCOC2)c1)c1cccc(Cl)c1O (stereo not shown) | ampC | – | – | – | Ki | 133 µM
COc1cccc(C(=O)Nc2ccc3c(c2)CN(C2CCC(=O)NC2=O)C3=O)c1 (stereo not shown) | Cereblon/Ikaros (Homo sapiens, UniProt Q13422+Q96SW2) | degrader, live-cell HiBiT kinetic | Jurkat Ikaros-HiBiT LgBiT | – | DC50 | > 10 µM
Cn1ncc(S(=O)(=O)NC2CCSc3ccc(F)cc32)c1C(=O)O (stereo not shown) | ampC | – | – | – | Ki | 16.8 µM
NC(N)=Nc1ccc2[nH]c3c(c2c1)C[C@@]1(O)[C@H]2Cc4ccc(O)c5c4[C@@]1(CCN2CC1CC1)[C@H]3O5 | OPRK1 (Homo sapiens, UniProt P41145, D138A) | – | – | – | Ki | 0.0028 µM
CSCC[C@H](NC(=O)[C@H](Cc1ccc(O)cc1)NC(=O)[C@@H](NC(=O)[C@@H]1CCCN1C(=O)[C@H](Cc1ccc(O)cc1)NC(=O)[C@H](CCC(N)=O)NC(=O)[C@@H](N)Cc1c[nH]cn1)C(C)C)C(=O)N[C@@H](CCC(N)=O)C(=O)N[C@@H](Cc1ccc(O)cc1)C(=O)O | HLA class I histocompatibility antigen, A alpha chain, allele A*01:01 (Homo sapiens, UniProt P04439) | binding | – | – | IC50 | 63.3 µM
COC(=O)C(Cc1cccc(F)c1)NS(=O)(=O)c1cccc(Cl)c1O (stereo not shown) | ampC | – | – | – | Ki | 212 µM
C[C@H]1O[C@@H](Oc2ccccc2[N+](=O)[O-])[C@H](O)[C@@H](O)[C@H]1O | lacI (Escherichia coli, UniProt P03023, D149C/N125C) | operator DNA binding, nitrocellulose filter binding | – | together with: O1 operator DNA | EC50 | 55 ± 1.8 µM
CSCC[C@H](NC(=O)[C@@H](NC(=O)[C@H](CC(C)C)NC(=O)[C@@H](NC(=O)[C@H](CCCCN)NC(=O)[C@H](CC(N)=O)NC(=O)[C@H](Cc1ccc(O)cc1)NC(=O)[C@H](CCSC)NC(=O)[C@@H](N)CCCNC(=N)N)[C@@H](C)O)[C@@H](C)O)C(=O)O | HLA class I histocompatibility antigen, A alpha chain allele A*02:01 | binding | – | – | IC50 | 1.56 µM
CCCCCC(NS(=O)(=O)c1cccc(Cl)c1O)C(=O)OC (stereo not shown) | ampC | – | – | – | Ki | 76 µM
CSCC[C@H](NC(=O)[C@@H](N)CCCNC(=N)N)C(=O)N[C@@H](Cc1ccccc1)C(=O)N[C@@H](CCCCN)C(=O)N[C@@H](Cc1c[nH]cn1)C(=O)N1CCC[C@H]1C(=O)N[C@@H](CC(C)C)C(=O)N[C@@H](CCC(N)=O)C(=O)N[C@@H](Cc1ccccc1)C(=O)O | HLA class I histocompatibility antigen, A alpha chain allele A*24:02 | binding | – | – | IC50 | 0.089 µM
CC[C@H](C)[C@H](NC(=O)c1ccc2c(c1)C(=O)OC21c2ccc(N(C)C)cc2Oc2cc(N(C)C)ccc21)C(=O)N[C@@H](Cc1ccccc1)C(=O)N[C@@H](CO)C(=O)N[C@H](C(=O)N[C@@H](Cc1ccccc1)C(=O)N[C@H](C(=O)NCC(=O)N[C@@H](CCC(=O)O)C(=O)N[C@@H](Cc1c[nH]cn1)C(=O)N[C@@H](Cc1ccc(OP(=O)(O)O)cc1)C(=O)N[C@H](C(=O)N[C@@H](Cc1c[nH]cn1)C(=O)N[C@H](C(=O)N[C@@H](CC(N)=O)C(=O)N[C@@H](C)C(=O)N[C@H](C(=O)N[C@@H](Cc1ccc(O)cc1)C(=O)N[C@@H](CC(=O)O)C(=O)O)[C@@H](C)O)C(C)C)C(C)C)[C@@H](C)CC)[C@@H](C)O | Tyrosine-protein kinase Yes, SH2 domain (YES1, Homo sapiens, UniProt P07947) | binding | – | – | Kd | 0.195 µM
COc1cc(Nc2ncc(F)c(Nc3ccc4c(n3)NC(=O)C(C)(C)O4)n2)cc(OC)c1OC | Collagenase 3 (MMP13, Homo sapiens, UniProt P45452) | – | – | metalloproteinase-13 | IC50 | > 10 µM
CSCC[C@H](NC(=O)CNC(=O)[C@H](Cc1ccccc1)NC(=O)[C@H](CC(=O)O)NC(=O)CNC(=O)c1ccc2c(c1)C(=O)OC21c2ccc(N(C)C)cc2Oc2cc(N(C)C)ccc21)C(=O)N[C@@H](CO)C(=O)N[C@@H](CCCNC(=N)N)C(=O)N[C@@H](CC(=O)O)C(=O)N[C@H](C(=O)N[C@@H](Cc1ccc(OP(=O)(O)O)cc1)C(=O)N[C@@H](CO)C(=O)N[C@H](C(=O)N[C@@H](CC(=O)O)C(=O)N[C@@H](Cc1ccc(O)cc1)C(=O)N[C@@H](Cc1ccc(O)cc1)C(=O)N[C@@H](CCCNC(=N)N)C(=O)N[C@H](C(=O)N[C@@H](CC(=O)O)C(=O)O)C(C)C)[C@@H](C)O)C(C)C | Tyrosine-protein kinase Blk, SH2 domain (BLK, Homo sapiens, UniProt P51451) | binding | – | – | Kd | 0.264 µM
CC[C@H](C)[C@H](NC(=O)[C@@H]1CCCN1C(=O)[C@H](CCCCN)NC(=O)[C@H](Cc1ccc(O)cc1)NC(=O)[C@H](CCSC)NC(=O)[C@@H](N)CCCNC(=N)N)C(=O)N[C@H](C(=O)N[C@@H](Cc1c[nH]cn1)C(=O)N[C@@H](Cc1ccccc1)C(=O)O)[C@@H](C)O | HLA class I histocompatibility antigen, A alpha chain allele A*24:02 | binding | – | – | IC50 | 0.713 µM

A few entries again:
SMILES | target | test | test system | conditions | endpoint | value
Cn1ncc(S(=O)(=O)NC2CCSc3ccc(F)cc32)c1C(=O)O (stereo not shown) | ampC | – | – | – | Ki | 16.8 µM
NC(N)=Nc1ccc2[nH]c3c(c2c1)C[C@@]1(O)[C@H]2Cc4ccc(O)c5c4[C@@]1(CCN2CC1CC1)[C@H]3O5 | OPRK1 (Homo sapiens, UniProt P41145, D138A) | – | – | – | Ki | 0.0028 µM
CSCC[C@H](NC(=O)[C@H](Cc1ccc(O)cc1)NC(=O)[C@@H](NC(=O)[C@@H]1CCCN1C(=O)[C@H](Cc1ccc(O)cc1)NC(=O)[C@H](CCC(N)=O)NC(=O)[C@@H](N)Cc1c[nH]cn1)C(C)C)C(=O)N[C@@H](CCC(N)=O)C(=O)N[C@@H](Cc1ccc(O)cc1)C(=O)O | HLA class I histocompatibility antigen, A alpha chain, allele A*01:01 (Homo sapiens, UniProt P04439) | binding | – | – | IC50 | 63.3 µM
